Assay results pooled from the literature.
Parts stem from different laboratories: compare values within a part only.
UniProt P08631, sequence (whole entry, looked up): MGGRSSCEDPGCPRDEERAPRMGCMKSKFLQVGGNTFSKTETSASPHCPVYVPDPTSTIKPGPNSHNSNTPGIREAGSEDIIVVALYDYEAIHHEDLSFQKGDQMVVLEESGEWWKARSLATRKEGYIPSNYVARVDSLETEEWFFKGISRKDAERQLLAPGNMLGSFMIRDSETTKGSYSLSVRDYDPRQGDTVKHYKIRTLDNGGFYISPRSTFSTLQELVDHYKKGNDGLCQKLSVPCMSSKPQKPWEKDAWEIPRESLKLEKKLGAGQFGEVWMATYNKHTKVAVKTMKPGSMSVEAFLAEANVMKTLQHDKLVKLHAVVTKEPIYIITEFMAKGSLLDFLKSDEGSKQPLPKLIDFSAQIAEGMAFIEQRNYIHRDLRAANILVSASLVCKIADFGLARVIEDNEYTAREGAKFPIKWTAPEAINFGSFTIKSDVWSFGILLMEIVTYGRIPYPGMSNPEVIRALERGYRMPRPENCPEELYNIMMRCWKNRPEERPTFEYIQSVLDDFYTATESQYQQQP
UniProt P14616, sequence (whole entry, looked up): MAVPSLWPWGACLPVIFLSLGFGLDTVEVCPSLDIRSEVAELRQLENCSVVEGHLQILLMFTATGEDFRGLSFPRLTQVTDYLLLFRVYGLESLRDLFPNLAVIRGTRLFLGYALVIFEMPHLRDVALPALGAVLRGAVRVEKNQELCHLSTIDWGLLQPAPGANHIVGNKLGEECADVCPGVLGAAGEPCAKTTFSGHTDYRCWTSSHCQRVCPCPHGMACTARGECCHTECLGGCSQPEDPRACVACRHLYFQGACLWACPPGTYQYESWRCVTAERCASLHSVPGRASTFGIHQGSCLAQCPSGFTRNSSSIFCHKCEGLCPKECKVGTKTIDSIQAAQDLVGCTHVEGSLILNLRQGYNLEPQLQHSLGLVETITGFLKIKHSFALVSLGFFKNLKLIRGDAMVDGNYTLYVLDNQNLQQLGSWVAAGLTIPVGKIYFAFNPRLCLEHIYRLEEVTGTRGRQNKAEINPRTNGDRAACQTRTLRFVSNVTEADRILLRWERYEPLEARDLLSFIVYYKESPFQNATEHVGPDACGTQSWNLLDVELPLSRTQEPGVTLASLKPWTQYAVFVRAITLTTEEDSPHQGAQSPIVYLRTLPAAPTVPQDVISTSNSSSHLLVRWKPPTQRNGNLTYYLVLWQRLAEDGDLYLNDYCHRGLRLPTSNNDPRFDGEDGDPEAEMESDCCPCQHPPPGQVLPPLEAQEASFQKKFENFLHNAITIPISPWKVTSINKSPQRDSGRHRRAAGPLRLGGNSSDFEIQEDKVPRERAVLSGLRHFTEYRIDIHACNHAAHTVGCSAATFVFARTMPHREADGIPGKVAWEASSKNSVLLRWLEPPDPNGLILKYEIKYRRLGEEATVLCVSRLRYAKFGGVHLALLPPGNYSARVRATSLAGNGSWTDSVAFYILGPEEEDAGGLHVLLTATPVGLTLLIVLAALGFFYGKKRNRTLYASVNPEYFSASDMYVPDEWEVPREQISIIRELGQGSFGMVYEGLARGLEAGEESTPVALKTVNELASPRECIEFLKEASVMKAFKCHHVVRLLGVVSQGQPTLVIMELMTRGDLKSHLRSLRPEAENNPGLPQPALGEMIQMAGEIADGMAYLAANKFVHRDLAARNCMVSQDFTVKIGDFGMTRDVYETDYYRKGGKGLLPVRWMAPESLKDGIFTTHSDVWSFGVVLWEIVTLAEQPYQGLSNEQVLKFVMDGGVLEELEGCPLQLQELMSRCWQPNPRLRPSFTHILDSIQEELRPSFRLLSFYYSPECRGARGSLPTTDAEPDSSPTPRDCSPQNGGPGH
UniProt Q14680, sequence (whole entry, looked up): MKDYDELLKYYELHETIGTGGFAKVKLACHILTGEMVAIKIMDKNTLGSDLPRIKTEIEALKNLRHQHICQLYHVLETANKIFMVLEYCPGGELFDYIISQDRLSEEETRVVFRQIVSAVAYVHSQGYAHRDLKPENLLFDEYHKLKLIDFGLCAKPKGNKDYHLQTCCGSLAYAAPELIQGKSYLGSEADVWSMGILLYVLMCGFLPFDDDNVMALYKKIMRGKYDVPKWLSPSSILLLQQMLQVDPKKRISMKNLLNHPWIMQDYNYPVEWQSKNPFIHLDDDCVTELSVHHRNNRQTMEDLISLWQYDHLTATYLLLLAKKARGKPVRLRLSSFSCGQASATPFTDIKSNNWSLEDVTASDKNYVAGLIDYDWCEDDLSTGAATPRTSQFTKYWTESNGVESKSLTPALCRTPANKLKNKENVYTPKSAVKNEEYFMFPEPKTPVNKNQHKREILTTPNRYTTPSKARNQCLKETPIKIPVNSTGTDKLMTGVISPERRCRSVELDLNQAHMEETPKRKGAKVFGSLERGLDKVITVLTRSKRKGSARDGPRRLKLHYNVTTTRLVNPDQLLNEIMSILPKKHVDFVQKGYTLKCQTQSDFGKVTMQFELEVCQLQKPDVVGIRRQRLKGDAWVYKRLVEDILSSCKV
UniProt Q15349, sequence (whole entry, looked up): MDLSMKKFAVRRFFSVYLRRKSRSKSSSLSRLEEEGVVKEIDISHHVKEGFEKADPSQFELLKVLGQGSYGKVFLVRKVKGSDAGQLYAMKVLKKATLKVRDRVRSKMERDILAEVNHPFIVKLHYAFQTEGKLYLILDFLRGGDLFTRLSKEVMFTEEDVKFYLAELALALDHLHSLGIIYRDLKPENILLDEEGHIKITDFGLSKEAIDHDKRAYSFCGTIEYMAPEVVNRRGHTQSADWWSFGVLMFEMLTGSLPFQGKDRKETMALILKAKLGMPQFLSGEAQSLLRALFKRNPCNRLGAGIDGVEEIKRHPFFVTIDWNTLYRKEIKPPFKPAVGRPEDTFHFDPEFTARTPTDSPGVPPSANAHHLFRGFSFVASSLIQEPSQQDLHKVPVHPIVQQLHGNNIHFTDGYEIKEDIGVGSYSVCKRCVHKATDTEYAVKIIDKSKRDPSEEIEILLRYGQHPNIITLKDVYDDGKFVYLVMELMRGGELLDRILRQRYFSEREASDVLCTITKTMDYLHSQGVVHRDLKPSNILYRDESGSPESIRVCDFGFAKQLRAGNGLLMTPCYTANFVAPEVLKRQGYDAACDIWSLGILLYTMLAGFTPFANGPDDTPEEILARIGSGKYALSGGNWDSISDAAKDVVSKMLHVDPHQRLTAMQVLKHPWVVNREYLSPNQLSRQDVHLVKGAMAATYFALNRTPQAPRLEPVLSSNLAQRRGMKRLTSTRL
UniProt P36896, sequence (whole entry, looked up): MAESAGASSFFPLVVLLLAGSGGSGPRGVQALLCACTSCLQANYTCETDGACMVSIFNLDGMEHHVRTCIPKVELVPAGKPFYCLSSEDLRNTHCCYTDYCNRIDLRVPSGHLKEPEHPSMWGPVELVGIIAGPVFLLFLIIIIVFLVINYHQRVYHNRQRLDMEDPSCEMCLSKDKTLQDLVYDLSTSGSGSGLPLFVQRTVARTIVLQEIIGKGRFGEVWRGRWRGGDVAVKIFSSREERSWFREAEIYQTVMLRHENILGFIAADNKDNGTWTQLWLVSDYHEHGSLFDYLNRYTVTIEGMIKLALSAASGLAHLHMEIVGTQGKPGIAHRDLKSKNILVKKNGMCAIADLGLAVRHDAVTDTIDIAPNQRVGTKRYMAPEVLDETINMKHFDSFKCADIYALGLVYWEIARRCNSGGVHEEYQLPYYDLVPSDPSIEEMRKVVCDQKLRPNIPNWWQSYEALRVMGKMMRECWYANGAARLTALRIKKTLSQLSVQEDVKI

Set 1
Target: Non-receptor tyrosine-protein kinase TYK2 (TYK2, Homo sapiens, UniProt P29597)
UniProt P29597, sequence (whole entry, looked up): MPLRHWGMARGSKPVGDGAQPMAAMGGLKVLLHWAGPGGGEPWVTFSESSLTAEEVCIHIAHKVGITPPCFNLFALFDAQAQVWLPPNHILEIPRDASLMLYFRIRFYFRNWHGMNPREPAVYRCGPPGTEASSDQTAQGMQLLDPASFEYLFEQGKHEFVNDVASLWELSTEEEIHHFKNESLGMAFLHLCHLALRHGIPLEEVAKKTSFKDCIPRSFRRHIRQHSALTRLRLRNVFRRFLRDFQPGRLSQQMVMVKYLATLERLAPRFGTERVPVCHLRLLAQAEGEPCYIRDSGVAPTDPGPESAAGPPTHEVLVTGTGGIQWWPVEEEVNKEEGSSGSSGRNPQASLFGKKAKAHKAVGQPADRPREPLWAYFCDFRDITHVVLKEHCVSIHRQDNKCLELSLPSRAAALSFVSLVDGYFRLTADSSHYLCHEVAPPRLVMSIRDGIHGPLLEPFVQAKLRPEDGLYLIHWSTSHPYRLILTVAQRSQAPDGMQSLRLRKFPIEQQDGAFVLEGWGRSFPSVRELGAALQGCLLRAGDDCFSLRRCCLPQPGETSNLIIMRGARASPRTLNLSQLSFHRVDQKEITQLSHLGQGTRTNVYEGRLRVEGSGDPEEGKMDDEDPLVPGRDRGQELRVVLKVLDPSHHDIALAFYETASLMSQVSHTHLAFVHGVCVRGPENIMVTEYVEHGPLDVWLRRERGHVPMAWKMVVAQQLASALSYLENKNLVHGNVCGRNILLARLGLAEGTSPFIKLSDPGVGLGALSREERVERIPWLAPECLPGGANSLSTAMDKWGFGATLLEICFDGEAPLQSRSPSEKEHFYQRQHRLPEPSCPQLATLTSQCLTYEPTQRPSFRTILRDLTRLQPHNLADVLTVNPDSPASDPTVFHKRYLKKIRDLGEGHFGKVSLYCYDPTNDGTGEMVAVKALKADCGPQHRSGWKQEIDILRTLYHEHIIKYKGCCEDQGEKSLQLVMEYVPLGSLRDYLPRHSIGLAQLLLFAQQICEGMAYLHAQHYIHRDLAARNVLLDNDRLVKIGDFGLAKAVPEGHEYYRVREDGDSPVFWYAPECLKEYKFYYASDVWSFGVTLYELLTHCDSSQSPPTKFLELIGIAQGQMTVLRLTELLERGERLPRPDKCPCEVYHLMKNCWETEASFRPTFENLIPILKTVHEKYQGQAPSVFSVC
Effect on: enzyme activity
Mode: inhibitor
Concentration: 0.5 µM
Reference: control
The remaining activity of `c1ccc(-c2cnc(Nc3ccc(OCCN4CCCC4)cc3)s2)cc1` is reported as 106%.
With `O=C1c2ccccc2-c2n[nH]c3cccc1c23` the remaining activity was 66.4%.
For `COc1cc2ncnc(Nc3ccc(O)c(Br)c3)c2cc1OC`, the remaining activity was 96.5%.
With `N#C/C(=C\c1ccc(O)c(O)c1)C(=O)NCc1ccccc1` the remaining activity was 97.1%.
`COc1cc2ncnc(Nc3cccc(Cl)c3)c2cc1OC` has a remaining activity of 98.1%.
With `O=c1cc(-c2cccc3c2Sc2ccccc2S3)oc(N2CCOCC2)c1` the remaining activity was 95.8%.
For `Cc1cc2ncc(-c3ccccc3)nc2cc1C`, the remaining activity was 97.6%.
`CCN(CC)CCNC(=O)c1c(C)[nH]c(/C=C2\C(=O)Nc3ccc(Cl)cc32)c1C` gave a remaining activity of 30.8%.
The remaining activity of `CCN(CC)C(=O)c1ccc(Nc2nc(OCC3CCCCC3)c3[nH]cnc3n2)cc1` is reported as 4.96%.
With `O=C(Nc1cccc(Nc2nccc(Nc3cccc(C(F)(F)F)c3)n2)c1)C1CC1` the remaining activity was 42.5%.
`Cc1nc2cc3nc(-c4cccs4)cnc3cc2n1C` has a remaining activity of 102%.
The remaining activity of `O=C1C(Cl)=C(N2C(=O)CCC2=O)C(=O)c2ccccc21` is reported as 102%.
`Cn1nc2c3c(cccc31)C(=O)c1ccccc1-2` gave a remaining activity of 89.4%.
With `O=C(NC(NC(=S)Nc1ccc(F)c([N+](=O)[O-])c1)C(Cl)(Cl)Cl)C(c1ccccc1)c1ccccc1` (stereo not drawn) the remaining activity was 94%.
For `CN(C)C[C@H]1CCn2c(c(C3=C(c4cn(C)c5ccccc45)C(=O)NC3=O)c3ccccc32)C1`, the remaining activity was 104%.
For `COc1cc2c(cc1OC)-c1[nH]nc(Nc3cccc(F)c3)c1C2`, the remaining activity was 81.3%.
`Ic1cccc(CSc2nnc(-c3ccncc3)o2)c1` has a remaining activity of 105%.
With `Cc1cn(-c2cc(NC(=O)c3ccc(C)c(Nc4nccc(-c5cccnc5)n4)c3)cc(C(F)(F)F)c2)cn1` the remaining activity was 99.3%.
With `CN([C@@H](Cc1ccc(OS(=O)(=O)c2cccc3cnccc23)cc1)C(=O)N1CCN(c2ccccc2)CC1)S(=O)(=O)c1cccc2cnccc12` the remaining activity was 110%.
`c1ccc(-c2[nH]ncc2-c2ccnc3ccccc23)nc1` gave a remaining activity of 101%.
`Nc1cccc(-c2cc3c(Oc4cccc(O)c4)ncnc3[nH]2)c1` has a remaining activity of 36.9%.
For `CCOc1nc(NC(=O)Cc2cc(OC)ccc2OC)cc(N)c1C#N`, the remaining activity was 101%.
The remaining activity of `N#Cc1c(NC(=O)c2cccc3ccccc23)sc2c1CCCC2` is reported as 100%.

Set 2
SMILES: CC(=O)N[C@@H](Cc1c[nH]c2ccccc12)C(=O)N[C@@H](CCC(=O)C=[N+]=[N-])C(=O)OC(C)C
Dose: dose not given
Reference: vehicle
For item: trans-urocanate; mouse, EL4 tumour-bearing, EL4 tumour: “log2 fold change” read 0.637.
The “log2 fold change” was -0.932 (item: 2'-O-methyluridine; mouse, EL4 tumour-bearing, EL4 tumour).
It gave 0.511 for “log2 fold change” (item: pyridoxate; mouse, EL4 tumour-bearing, EL4 tumour).
It gave 0.048 for “log2 fold change” (item: cytidine; mouse, EL4 tumour-bearing, EL4 tumour).
The “log2 fold change” was -0.847 (item: gamma-glutamylcysteine; mouse, EL4 tumour-bearing, EL4 tumour).
item: NAD+; mouse, EL4 tumour-bearing, EL4 tumour — “log2 fold change”: -0.289.
For item: galacturonate 1-phosphate; mouse, EL4 tumour-bearing, EL4 tumour: “log2 fold change” read 0.12.
item: dihydroorotate; mouse, EL4 tumour-bearing, EL4 tumour — “log2 fold change”: -1.6.
It gave -0.251 for “log2 fold change” (item: 5-oxoproline; mouse, EL4 tumour-bearing, EL4 tumour).
item: 2'-deoxyguanosine 3'-monophosphate; mouse, EL4 tumour, tumour — “log2 fold change”: 1.92.

Set 3
SMILES: CN(C)C(=O)Cn1cc(-c2nc(C3(c4ccc(-c5cnc(N)nc5)cc4)CC3)no2)cn1
Effect on: cell-free assay
Method: competition with immobilised ligand
Concentration: 1 µM
It gave 74% for remaining binding (Serine/threonine-protein kinase haspin (HASPIN, Homo sapiens, UniProt Q8TF76)).
The remaining binding was 93% (Receptor-type tyrosine-protein kinase FLT3 (FLT3, Homo sapiens, UniProt P36888, D835H)).
The remaining binding was 86% (Epidermal growth factor receptor (EGFR, Homo sapiens, UniProt P00533, L858R)).
Tyrosine-protein kinase HCK (HCK, Homo sapiens, UniProt P08631) — remaining binding: 100%.
Serine/threonine-protein kinase PLK1 (PLK1, Homo sapiens, UniProt P53350) — remaining binding: 82%.
For Wee1-like protein kinase (WEE1, Homo sapiens, UniProt P30291): remaining binding read 87%.
It gave 100% for remaining binding (Phosphatidylinositol 4,5-bisphosphate 3-kinase catalytic subunit alpha isoform (PIK3CA, Homo sapiens, UniProt P42336, Q546K)).
It gave 94% for remaining binding (MAP kinase-interacting serine/threonine-protein kinase 2 (MKNK2, Homo sapiens, UniProt Q9HBH9)).
It gave 100% for remaining binding (Ribosomal protein S6 kinase alpha-2, N-terminal kinase domain (RPS6KA2, Homo sapiens, UniProt Q15349)).
The remaining binding was 91% (Ribosomal protein S6 kinase alpha-4, N-terminal kinase domain (RPS6KA4, Homo sapiens, UniProt O75676)).
It gave 89% for remaining binding (Serine/threonine-protein kinase Nek5 (NEK5, Homo sapiens, UniProt Q6P3R8)).
The remaining binding was 92% (Maternal embryonic leucine zipper kinase (MELK, Homo sapiens, UniProt Q14680)).
It gave 100% for remaining binding (Non-receptor tyrosine-protein kinase TYK2, JH1 (TYK2, Homo sapiens, UniProt P29597)).

Set 4
Compound: O=C(Nc1ccccc1)Nc1cccc(Oc2ccc3nccn3n2)c1
Method: competitive binding panel
Concentration: 1 µM
Reference: vehicle
For Activin receptor type-1B (ACVR1B, Homo sapiens, UniProt P36896): remaining binding read 100%.
The remaining binding was 92% (Proto-oncogene tyrosine-protein kinase receptor Ret (RET, Homo sapiens, UniProt P07949)).
Insulin receptor-related protein (INSRR, Homo sapiens, UniProt P14616) — remaining binding: 100%.
It gave 100% for remaining binding (SNF-related serine/threonine-protein kinase (SNRK, Homo sapiens, UniProt Q9NRH2)).
Serine/threonine-protein kinase 17B (STK17B, Homo sapiens, UniProt O94768); item: DRAK2 — remaining binding: 99%.
For Tyrosine-protein kinase ABL1 (ABL1, Homo sapiens, UniProt P00519, E255K): remaining binding read 93%.
The remaining binding was 66% (Ephrin type-A receptor 3 (EPHA3, Homo sapiens, UniProt P29320)).
For Serine/threonine-protein kinase SIK2 (SIK2, Homo sapiens, UniProt Q9H0K1): remaining binding read 88%.

Some of these lines once more (set 1):
For `COc1cc2ncnc(Nc3ccc(O)c(Br)c3)c2cc1OC`, the remaining activity was 96.5%.
With `N#C/C(=C\c1ccc(O)c(O)c1)C(=O)NCc1ccccc1` the remaining activity was 97.1%.
`COc1cc2ncnc(Nc3cccc(Cl)c3)c2cc1OC` has a remaining activity of 98.1%.
